Assay results of several laboratories.
Every numbered part comes from another study and shows a few of its results, in no order. “And” joins repeats or separate records; there may be more than shown.
UniProt P07949, sequence (whole entry, unmodified, looked up): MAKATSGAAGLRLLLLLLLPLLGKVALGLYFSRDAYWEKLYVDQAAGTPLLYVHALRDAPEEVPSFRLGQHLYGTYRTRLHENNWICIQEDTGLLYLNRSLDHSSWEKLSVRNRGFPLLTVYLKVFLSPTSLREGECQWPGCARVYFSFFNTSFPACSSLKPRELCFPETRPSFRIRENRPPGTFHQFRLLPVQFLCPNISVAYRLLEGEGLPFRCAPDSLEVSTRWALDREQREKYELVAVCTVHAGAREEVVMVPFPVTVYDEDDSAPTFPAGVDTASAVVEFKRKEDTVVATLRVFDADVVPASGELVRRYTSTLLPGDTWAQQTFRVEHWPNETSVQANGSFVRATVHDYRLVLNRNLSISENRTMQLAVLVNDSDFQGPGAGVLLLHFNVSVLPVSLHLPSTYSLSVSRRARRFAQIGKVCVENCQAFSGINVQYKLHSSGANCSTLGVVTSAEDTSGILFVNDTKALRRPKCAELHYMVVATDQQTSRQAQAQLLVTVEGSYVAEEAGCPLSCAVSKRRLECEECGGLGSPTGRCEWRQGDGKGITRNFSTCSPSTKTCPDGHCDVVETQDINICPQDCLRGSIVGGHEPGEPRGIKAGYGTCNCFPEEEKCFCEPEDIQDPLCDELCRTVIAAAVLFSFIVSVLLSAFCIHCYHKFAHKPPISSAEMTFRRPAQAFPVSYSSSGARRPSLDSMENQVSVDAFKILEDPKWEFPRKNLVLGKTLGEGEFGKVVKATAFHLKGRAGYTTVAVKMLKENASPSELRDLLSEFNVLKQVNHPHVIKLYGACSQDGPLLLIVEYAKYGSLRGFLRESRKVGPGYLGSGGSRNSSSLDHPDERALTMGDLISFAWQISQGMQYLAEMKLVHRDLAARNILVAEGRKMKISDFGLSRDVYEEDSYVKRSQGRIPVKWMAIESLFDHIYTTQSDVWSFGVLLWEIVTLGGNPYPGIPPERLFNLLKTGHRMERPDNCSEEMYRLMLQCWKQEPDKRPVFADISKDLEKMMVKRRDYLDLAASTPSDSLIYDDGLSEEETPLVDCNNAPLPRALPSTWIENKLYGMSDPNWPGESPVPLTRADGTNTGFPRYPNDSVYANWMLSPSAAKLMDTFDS
UniProt P29597, sequence (whole entry, looked up): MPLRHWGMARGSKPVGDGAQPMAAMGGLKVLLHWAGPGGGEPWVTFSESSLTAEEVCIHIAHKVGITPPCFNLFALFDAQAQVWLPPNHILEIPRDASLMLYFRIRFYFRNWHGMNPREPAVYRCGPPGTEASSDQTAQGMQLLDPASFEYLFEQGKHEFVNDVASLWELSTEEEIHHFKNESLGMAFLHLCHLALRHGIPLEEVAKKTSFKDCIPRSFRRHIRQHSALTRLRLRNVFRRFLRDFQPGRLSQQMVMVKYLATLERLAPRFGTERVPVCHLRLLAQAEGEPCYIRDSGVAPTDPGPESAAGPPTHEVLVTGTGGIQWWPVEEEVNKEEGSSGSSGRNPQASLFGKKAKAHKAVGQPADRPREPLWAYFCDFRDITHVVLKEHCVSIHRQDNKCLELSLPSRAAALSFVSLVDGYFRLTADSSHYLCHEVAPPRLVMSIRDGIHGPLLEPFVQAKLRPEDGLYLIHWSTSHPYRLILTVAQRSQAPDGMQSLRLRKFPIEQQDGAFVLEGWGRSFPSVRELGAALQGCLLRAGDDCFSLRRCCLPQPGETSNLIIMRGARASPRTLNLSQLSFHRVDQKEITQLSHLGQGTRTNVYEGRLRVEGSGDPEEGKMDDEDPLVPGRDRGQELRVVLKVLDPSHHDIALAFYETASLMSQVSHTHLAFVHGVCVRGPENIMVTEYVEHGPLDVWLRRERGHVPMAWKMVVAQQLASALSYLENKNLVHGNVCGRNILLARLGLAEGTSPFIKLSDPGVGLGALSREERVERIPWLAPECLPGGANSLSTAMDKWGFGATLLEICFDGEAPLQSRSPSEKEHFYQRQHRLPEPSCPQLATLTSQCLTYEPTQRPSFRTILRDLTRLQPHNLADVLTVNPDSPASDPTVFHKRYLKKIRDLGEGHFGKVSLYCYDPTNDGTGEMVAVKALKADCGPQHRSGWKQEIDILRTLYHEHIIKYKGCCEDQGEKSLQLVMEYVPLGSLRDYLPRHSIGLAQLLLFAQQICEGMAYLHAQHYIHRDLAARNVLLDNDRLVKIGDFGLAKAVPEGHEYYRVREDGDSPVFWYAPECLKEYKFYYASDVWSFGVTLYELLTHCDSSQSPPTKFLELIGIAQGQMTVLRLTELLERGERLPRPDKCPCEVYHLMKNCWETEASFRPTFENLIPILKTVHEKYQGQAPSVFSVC
UniProt Q9BZL6, sequence (whole entry, looked up): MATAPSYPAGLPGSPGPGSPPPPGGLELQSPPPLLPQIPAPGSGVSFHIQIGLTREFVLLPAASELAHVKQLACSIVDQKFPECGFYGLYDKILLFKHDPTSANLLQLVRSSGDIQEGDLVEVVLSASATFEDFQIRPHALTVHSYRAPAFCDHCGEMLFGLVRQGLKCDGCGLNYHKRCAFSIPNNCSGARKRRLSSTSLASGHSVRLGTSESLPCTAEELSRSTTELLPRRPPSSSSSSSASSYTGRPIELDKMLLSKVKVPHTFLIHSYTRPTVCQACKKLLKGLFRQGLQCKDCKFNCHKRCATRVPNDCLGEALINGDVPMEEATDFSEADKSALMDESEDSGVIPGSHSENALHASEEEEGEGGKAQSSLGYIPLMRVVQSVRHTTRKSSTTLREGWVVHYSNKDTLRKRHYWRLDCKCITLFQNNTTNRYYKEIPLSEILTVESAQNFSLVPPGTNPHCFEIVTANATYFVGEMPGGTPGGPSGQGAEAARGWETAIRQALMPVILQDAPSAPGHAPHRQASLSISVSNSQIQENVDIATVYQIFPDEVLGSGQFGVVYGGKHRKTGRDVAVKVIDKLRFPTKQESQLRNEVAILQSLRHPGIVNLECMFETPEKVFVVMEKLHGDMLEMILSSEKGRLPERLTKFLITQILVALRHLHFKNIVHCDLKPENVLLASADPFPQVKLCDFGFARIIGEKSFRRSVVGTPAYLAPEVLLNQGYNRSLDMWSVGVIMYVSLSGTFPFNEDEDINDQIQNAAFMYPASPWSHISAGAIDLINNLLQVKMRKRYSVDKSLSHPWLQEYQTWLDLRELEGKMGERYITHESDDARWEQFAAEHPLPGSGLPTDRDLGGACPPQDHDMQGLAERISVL
UniProt Q9BVS4, sequence (whole entry, looked up): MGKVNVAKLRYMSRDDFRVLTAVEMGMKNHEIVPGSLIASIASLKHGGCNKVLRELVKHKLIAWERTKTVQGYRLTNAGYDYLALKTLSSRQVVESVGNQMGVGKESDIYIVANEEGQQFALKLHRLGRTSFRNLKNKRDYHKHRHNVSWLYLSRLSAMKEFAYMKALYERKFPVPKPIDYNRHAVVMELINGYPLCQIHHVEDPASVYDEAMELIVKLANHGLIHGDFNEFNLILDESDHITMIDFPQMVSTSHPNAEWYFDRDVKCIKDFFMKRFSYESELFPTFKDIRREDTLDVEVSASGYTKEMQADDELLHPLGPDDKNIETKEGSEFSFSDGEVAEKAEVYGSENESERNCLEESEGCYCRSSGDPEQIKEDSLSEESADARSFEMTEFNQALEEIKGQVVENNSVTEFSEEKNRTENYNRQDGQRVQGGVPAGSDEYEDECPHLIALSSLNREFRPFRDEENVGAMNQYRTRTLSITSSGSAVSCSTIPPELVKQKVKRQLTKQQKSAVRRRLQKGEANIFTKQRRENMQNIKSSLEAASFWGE
UniProt Q7KZI7, sequence (whole entry, looked up): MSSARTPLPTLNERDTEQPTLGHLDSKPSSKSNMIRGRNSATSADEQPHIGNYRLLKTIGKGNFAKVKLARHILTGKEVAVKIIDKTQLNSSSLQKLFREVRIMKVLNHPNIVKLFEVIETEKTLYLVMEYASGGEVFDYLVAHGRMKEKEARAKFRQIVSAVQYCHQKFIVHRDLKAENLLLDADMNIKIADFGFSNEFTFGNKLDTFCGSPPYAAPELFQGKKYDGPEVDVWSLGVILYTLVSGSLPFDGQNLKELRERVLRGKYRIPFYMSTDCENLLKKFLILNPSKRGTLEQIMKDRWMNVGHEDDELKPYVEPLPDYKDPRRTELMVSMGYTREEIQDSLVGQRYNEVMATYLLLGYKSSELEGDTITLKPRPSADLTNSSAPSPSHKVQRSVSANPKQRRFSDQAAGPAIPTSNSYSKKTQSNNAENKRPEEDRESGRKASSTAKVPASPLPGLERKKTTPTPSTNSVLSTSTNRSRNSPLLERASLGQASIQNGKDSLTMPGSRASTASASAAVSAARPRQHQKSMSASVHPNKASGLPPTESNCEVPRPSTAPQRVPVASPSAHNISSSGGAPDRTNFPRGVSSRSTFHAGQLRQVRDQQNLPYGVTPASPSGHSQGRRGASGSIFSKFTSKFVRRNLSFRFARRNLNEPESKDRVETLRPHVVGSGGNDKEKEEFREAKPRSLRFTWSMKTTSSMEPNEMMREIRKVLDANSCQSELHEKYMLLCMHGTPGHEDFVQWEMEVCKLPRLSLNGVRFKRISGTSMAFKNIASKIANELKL

Sample 1
Structure (SMILES): Cc1nccc(COC(=O)N2C[C@@H]3[C@@H](CNC(=O)c4ccc5[nH]nnc5c4)[C@@H]3C2)n1
Observed: cell-free assay
Method: competition with immobilised ligand
Concentration: 1 µM
target | remaining binding [%]
Serine/threonine-protein kinase mTOR (MTOR, Homo sapiens, UniProt P42345) | 96
Phosphatidylinositol 4,5-bisphosphate 3-kinase catalytic subunit gamma isoform (PIK3CG, Homo sapiens, UniProt P48736) | 89
Serine/threonine-protein kinase D2 (PRKD2, Homo sapiens, UniProt Q9BZL6) | 92
Non-receptor tyrosine-protein kinase TYK2, JH2 (TYK2, Homo sapiens, UniProt P29597) | 100
Ribosomal protein S6 kinase alpha-1, N-terminal kinase domain (RPS6KA1, Homo sapiens, UniProt Q15418) | 98
Serine/threonine-protein kinase Nek1 (NEK1, Homo sapiens, UniProt Q96PY6) | 100
NUAK family SNF1-like kinase 2 (NUAK2, Homo sapiens, UniProt Q9H093) | 100
Proto-oncogene tyrosine-protein kinase receptor Ret (RET, Homo sapiens, UniProt P07949) | 93
Serine/threonine-protein kinase TBK1 (TBK1, Homo sapiens, UniProt Q9UHD2) | 96
Tyrosine-protein kinase ABL1, phosphorylated (ABL1, Homo sapiens, UniProt P00519, T315I) | 95
Epidermal growth factor receptor (EGFR, Homo sapiens, UniProt P00533) | 82
Ephrin type-A receptor 3 (EPHA3, Homo sapiens, UniProt P29320) | 93
Hormonally up-regulated neu tumor-associated kinase (HUNK, Homo sapiens, UniProt P57058) | 81
Microtubule-associated serine/threonine-protein kinase 1 (MAST1, Homo sapiens, UniProt Q9Y2H9) | 100
Mitogen-activated protein kinase kinase kinase 2 (MAP3K2, Homo sapiens, UniProt Q9Y2U5) | 100
Atypical kinase COQ8B, mitochondrial (COQ8B, Homo sapiens, UniProt Q96D53) | 100
Serine/threonine-protein kinase Nek9 (NEK9, Homo sapiens, UniProt Q8TD19) | 100
Serine/threonine-protein kinase MARK2 (MARK2, Homo sapiens, UniProt Q7KZI7) | 97
Serine/threonine-protein kinase RIO2 (RIOK2, Homo sapiens, UniProt Q9BVS4) | 97
Proto-oncogene tyrosine-protein kinase receptor Ret (RET, Homo sapiens, UniProt P07949, V804L) | 100
Ephrin type-A receptor 6 (EPHA6, Homo sapiens, UniProt Q9UF33) | 98
TGF-beta receptor type-2 (TGFBR2, Homo sapiens, UniProt P37173) | 100
Tyrosine-protein kinase ABL1, phosphorylated (ABL1, Homo sapiens, UniProt P00519, F317L) | 90
Phosphatidylinositol 4,5-bisphosphate 3-kinase catalytic subunit alpha isoform (PIK3CA, Homo sapiens, UniProt P42336, C420R) | 97
Protein kinase C eta type (PRKCH, Homo sapiens, UniProt P24723) | 98

Sample 2
Target: cAMP-dependent protein kinase catalytic subunit gamma (PRKACG, Homo sapiens, UniProt P22612)
UniProt P22612, sequence (whole entry, looked up): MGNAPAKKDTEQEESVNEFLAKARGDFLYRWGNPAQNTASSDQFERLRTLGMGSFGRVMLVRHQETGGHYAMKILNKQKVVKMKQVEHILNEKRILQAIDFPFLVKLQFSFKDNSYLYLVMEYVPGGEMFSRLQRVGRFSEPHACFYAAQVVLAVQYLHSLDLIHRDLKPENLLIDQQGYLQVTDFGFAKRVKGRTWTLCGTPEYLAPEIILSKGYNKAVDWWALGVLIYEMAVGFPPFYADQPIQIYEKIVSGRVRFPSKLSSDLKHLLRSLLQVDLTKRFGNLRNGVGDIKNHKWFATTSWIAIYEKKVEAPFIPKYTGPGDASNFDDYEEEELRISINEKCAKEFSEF
Observed: enzyme activity
Action: inhibitor
Concentration: 0.5 µM
Baseline: control
SMILES | remaining activity [%]
N#C/C(=C\c1ccc(O)c(O)c1)C(=O)NCc1ccccc1 | 90.7
COc1cc2c(cc1OC)-c1[nH]nc(Nc3cccc(F)c3)c1C2 | 102
C[C@@H]1CCN(C(=O)CC#N)C[C@@H]1N(C)c1ncnc2[nH]ccc12 | 111
O=C1C(Cl)=C(N2C(=O)CCC2=O)C(=O)c2ccccc21 | 95.1
CCN(CC)CCNC(=O)c1c(C)[nH]c(/C=C2\C(=O)Nc3ccc(F)cc32)c1C | 109
c1ccc(-c2[nH]ncc2-c2ccnc3ccccc23)nc1 | 92.9
CN([C@@H](Cc1ccc(OS(=O)(=O)c2cccc3cnccc23)cc1)C(=O)N1CCN(c2ccccc2)CC1)S(=O)(=O)c1cccc2cnccc12 | 107
O=C1Nc2ccc(Cl)cc2C1=Cc1cc(Cl)c(O)c(Cl)c1 | 99.2
CN(C)C[C@H]1CCn2c(c(C3=C(c4cn(C)c5ccccc45)C(=O)NC3=O)c3ccccc32)C1 | 108
CCN(CC)CCNC(=O)c1c(C)[nH]c(/C=C2\C(=O)Nc3ccc(Cl)cc32)c1C | 101
Cc1cc2ncc(-c3ccccc3)nc2cc1C | 95.8
CCOc1nc(NC(=O)Cc2cc(OC)ccc2OC)cc(N)c1C#N | 104
Cc1cn(-c2cc(NC(=O)c3ccc(C)c(Nc4nccc(-c5cccnc5)n4)c3)cc(C(F)(F)F)c2)cn1 | 113
N#Cc1c(NC(=O)c2cccc3ccccc23)sc2c1CCCC2 | 111
COc1cc2ncnc(Nc3cccc(Cl)c3)c2cc1OC | 87.9

Sample 3
SMILES: CC(C)C[C@@H]1NC(=O)[C@@H](N(C)C(=O)[C@H](CC2CCC2)NC(=O)[C@@H]2C[C@@H](F)CN2C(=O)C2(C(F)(F)F)CC(F)(F)C2)CCCCNC(=O)C2(CC2)NC(=O)[C@H](Cc2cc(Cl)ccc2Cl)N(C)C1=O
Cell line: human CD34+ HSPC
Method: EdU flow cytometry
Time: 24 h
conditions | G0-G1 phase cells
10 nM | 49% and 43.2%
3000 nM | 50.8% and 45.7%
1000 nM | 46.5% and 46.7%

Sample 4
Cell line: A-375
Concentration: 100 µM
Time: 18 h
Compound | viability [%]
CCOC(=O)CCC(=O)O[C@H]1[C@H](O[C@@H]2[C@@H](C)[C@H](O[C@H]3C[C@@](C)(OC)[C@@H](O)[C@H](C)O3)[C@@H](C)C(=O)O[C@H](CC)[C@@](C)(O)[C@H](O)[C@@H](C)C(=O)[C@H](C)C[C@@]2(C)O)O[C@H](C)C[C@@H]1N(C)C | 96.9
COc1ccc(-c2coc3cc(O)ccc3c2=O)cc1 | 91.1
Nc1nc2ncc(CNc3ccc(C(=O)N[C@@H](CCC(=O)O)C(=O)O)cc3)nc2c(=O)[nH]1 | 105
CC(CCc1ccc(O)cc1)NCC(O)c1ccc(O)cc1 (stereo not shown) | 89.2
C[C@@H](c1nc(-c2ccc(C#N)cc2)cs1)[C@](O)(Cn1cncn1)c1cc(F)ccc1F | 48.1
COc1ccccc1N1CCN(CC(O)COc2cccc3ccccc23)CC1 (stereo not shown) | 12.6
CN(Cc1cnc2nc(N)nc(N)c2n1)c1ccc(C(=O)N[C@@H](CCC(=O)O)C(=O)O)cc1 | 69.2
CC(C)[C@H](N)C(=O)OCC(CO)OCn1cnc2c(=O)nc(N)[nH]c21 (stereo partly shown) | 80
CN(C)c1nc(N(C)C)nc(N(C)C)n1 | 89.4
Cc1cc(C2CCCCC2)n(O)c(=O)c1 | 80.6
CC(C(=O)O)c1ccc(-c2ccccc2)c(F)c1 (stereo not shown) | 111
CC(C)NCC(O)COc1ccc(COCCOC(C)C)cc1 (racemic) | 94.9

A few entries again (sample 2):
SMILES | remaining activity [%]
CCOc1nc(NC(=O)Cc2cc(OC)ccc2OC)cc(N)c1C#N | 104
COc1cc2c(cc1OC)-c1[nH]nc(Nc3cccc(F)c3)c1C2 | 102
N#C/C(=C\c1ccc(O)c(O)c1)C(=O)NCc1ccccc1 | 90.7
N#Cc1c(NC(=O)c2cccc3ccccc23)sc2c1CCCC2 | 111
c1ccc(-c2[nH]ncc2-c2ccnc3ccccc23)nc1 | 92.9
